Published values of several laboratories.
Protocols differ between the studies behind these lines. Values joined by “and” are separate records of one study, mostly repeats; a detail may differ. ± gives the spread as reported.
Sequence of UniProt P21802 (whole entry, looked up): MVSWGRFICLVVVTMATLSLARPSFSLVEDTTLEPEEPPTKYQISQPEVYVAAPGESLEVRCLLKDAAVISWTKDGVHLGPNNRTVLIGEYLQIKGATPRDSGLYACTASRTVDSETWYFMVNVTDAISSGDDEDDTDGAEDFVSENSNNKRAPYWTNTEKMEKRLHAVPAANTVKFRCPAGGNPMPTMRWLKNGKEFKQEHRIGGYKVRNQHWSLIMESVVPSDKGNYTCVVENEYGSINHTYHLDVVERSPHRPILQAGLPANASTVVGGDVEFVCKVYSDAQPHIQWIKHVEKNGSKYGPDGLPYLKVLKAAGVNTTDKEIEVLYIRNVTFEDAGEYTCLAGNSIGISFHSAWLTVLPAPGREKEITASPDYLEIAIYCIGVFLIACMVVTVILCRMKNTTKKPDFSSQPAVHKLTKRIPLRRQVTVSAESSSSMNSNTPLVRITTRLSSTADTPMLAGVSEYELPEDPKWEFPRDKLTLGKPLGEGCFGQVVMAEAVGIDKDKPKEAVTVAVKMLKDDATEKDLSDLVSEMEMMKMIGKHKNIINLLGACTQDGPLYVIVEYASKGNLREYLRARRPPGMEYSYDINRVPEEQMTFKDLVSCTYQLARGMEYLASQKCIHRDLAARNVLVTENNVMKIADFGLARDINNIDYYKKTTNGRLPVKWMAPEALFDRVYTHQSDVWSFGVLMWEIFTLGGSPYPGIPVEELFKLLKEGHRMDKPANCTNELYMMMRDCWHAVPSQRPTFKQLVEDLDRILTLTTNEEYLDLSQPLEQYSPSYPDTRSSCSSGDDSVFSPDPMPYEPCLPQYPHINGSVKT

| SMILES | target or system | test | system | setting | scale | endpoint | value |
| --- | --- | --- | --- | --- | --- | --- | --- |
| CC[C@H](C)[C@H](NC(=O)[C@H](C)NC(=O)CNC(=O)[C@H](Cc1ccccc1)NC(=O)[C@H](CC(N)=O)NC(=O)[C@H](CC(N)=O)NC(=O)[C@H](CO)NC(=O)[C@H](CO)NC(=O)[C@H](Cc1c[nH]cn1)NC(=O)[C@@H](NC(=O)[C@H](CC(C)C)NC(=O)[C@H](Cc1ccccc1)NC(=O)[C@H](CC(N)=O)NC(=O)[C@H](C)NC(=O)[C@H](CC(C)C)NC(=O)[C@H](CCCNC(=N)N)NC(=O)[C@H](CCC(N)=O)NC(=O)[C@@H](NC(=O)[C@H](C)NC(=O)[C@@H]1CSSC[C@H](NC(=O)[C@@H](N)CCCCN)C(=O)N[C@@H](CC(N)=O)C(=O)N[C@@H]([C@@H](C)O)C(=O)N[C@@H](C)C(=O)N[C@@H]([C@@H](C)O)C(=O)N1)[C@@H](C)O)C(C)C)C(=O)N[C@@H](CC(C)C)C(=O)N[C@@H](CO)C(=O)N[C@@H](CO)C(=O)N[C@H](C(=O)N[C@@H](CC(N)=O)C(=O)N[C@H](C(=O)NCC(=O)N[C@@H](CO)C(=O)N[C@@H](CC(N)=O)C(=O)N[C@H](C(=O)N[C@@H](Cc1ccc(O)cc1)C(N)=O)[C@@H](C)O)C(C)C)[C@@H](C)O | RIN-m5F | colocalization microscopy, item: HSP70 and HSP90 |  | 10 µM, 24 h |  | Pearson colocalization coefficient | < 0.3 |
| O=C1NC2(CC2)COc2ncc(F)cc2[C@H]2COCCN2c2ccn3ncc1c3n2 |  |  | Sprague-Dawley rat, female, heart | oral, 2.5 mg/kg/day, 4 weeks dosing, end of recovery |  | organ-to-brain weight ratio | 54.5 ± 5.47% |
| CC(=O)NCSC[C@H](NC(=O)[C@@H]1CCCN1C(=O)[C@H](C)NC(=O)[C@@H](NC(=O)CNC(=O)[C@@H](NC(=O)[C@H](Cc1c[nH]c2ccccc12)NC(=O)[C@H](C)NC(=O)CNC(=O)[C@H](CO)NC(=O)[C@H](C)NC(=O)[C@@H]1CCCN1C(=O)[C@H](Cc1c[nH]c2ccccc12)NC(=O)[C@H](C)NC(=O)[C@H](C)NC(=O)[C@@H](N)Cc1ccc(O)cc1)[C@@H](C)O)[C@@H](C)O)C(=O)N[C@@H](CO)C(=O)N[C@@H](C)C(=O)NCC(=O)N[C@H](C(=O)NCCOCCOCCOCCOCCOCCOCCOCCOCCOCCOCCOCCOCCC(=O)N[C@@H](CS)C(N)=O)[C@@H](C)O | SKOV3 ovarian cancer | cell binding, phage binding, item: output/input phage |  | 10 min, 37 °C | relative to: control phage | selectivity ratio | 6.1 ± 3.4 |
| COc1ccccc1-c1ccncc1C(=O)Nc1nnc(OCc2ccc(Cl)cc2)s1 | RPE-1 BRCA1 WT parental |  |  | 2 µM, run 2 | relative to: untreated | colony survival | 86.8% |
| O=C(C[Se]C(=O)c1ccccc1Nc1cccc(C(F)(F)F)c1)Nc1cccc(C(F)(F)F)c1 | NCI60 melanoma subpanel | cytotoxicity, inhibitor |  | five-dose |  | CC50 | 10.6 µM |
| N=C(N)NCCC[C@H](NC(=O)CNC(=O)[C@@H](N)Cc1ccc(O)cc1)C(=O)N[C@@H](CCCCN)C(=O)N[C@@H](CCCCN)C(=O)N[C@@H](CCCNC(=N)N)C(=O)N[C@@H](CCCNC(=N)N)C(=O)N[C@@H](CCC(N)=O)C(=O)N[C@@H](CCCNC(=N)N)C(=O)N[C@@H](CCCNC(=N)N)C(=O)N[C@@H](CCCNC(=N)N)C(=O)N[C@@H](CS)C(N)=O | human red blood cells |  |  | pH 7.4 | relative to: Triton X-100 | EC50 | > 100 µM |
| CC[C@H](C)[C@H](NC(=O)[C@H](C)NC(=O)CNC(=O)[C@H](Cc1ccccc1)NC(=O)[C@H](CC(N)=O)NC(=O)[C@H](CC(N)=O)NC(=O)[C@H](CO[C@@H]1O[C@H](CO)[C@@H](O)[C@H](O)[C@H]1NC(C)=O)NC(=O)[C@H](CO)NC(=O)[C@H](Cc1c[nH]cn1)NC(=O)[C@@H](NC(=O)[C@H](CC(C)C)NC(=O)[C@H](Cc1ccccc1)NC(=O)[C@H](CC(N)=O)NC(=O)[C@H](C)NC(=O)[C@@H](N)CC(C)C)C(C)C)C(=O)N[C@@H](CC(C)C)C(N)=O | INS-1 | MTT |  | 2 equivalents to hIAPP, 24 h, together with: hIAPP 1 µM |  | viability | 69.7% and 70.3% |
| CC1CCC2C(C)C(OC(=O)CCC(=O)N3CCC(Nc4ccc(S(=O)(=O)NC(=O)c5ccc(N6CCN(CC7=C(c8ccc(Cl)cc8)CC(C)(C)CC7)CC6)cc5Oc5cnc6[nH]ccc6c5)cc4[N+](=O)[O-])CC3)OC3OC4(C)CCC1C32OO4 (stereo not drawn) | K562 | annexin V/PI flow cytometry, item: annexin V+/PI+ |  | 3.2 µM, 24 h |  | late apoptotic cells | 2.4% |
| O=C(C[Se]C(=O)c1cc2ccccc2[nH]1)Nc1cccc(C(F)(F)F)c1 | NCI60 leukaemia subpanel | NCI60 five-dose screen |  |  |  | CC50 | 4.74 µM |
| COc1ccc(NC(=O)c2ccc3[nH]c(-c4ccc(N(C)C)cc4)nc3c2)cn1 | HCT116 | IncuCyte |  | concentration not given, 44 (unit not given) |  | PI-positive cells | 212 count and 228 count and 292 count |
| CC(C)CC(O)(CC(C)C)c1cn(C(=O)N2CCCC2)nn1 | mouse T-cells | SILAC proteomics, item: OXSR1 |  | 1 nM, 6 h, unit not given | relative to: DMSO | protein level | 1.07 |
| Cc1cc(Oc2nc(N3CC[C@@H](c4ccncc4)C3)ncc2F)[nH]n1 | MV4-11 | cell proliferation | blood cancer |  |  | IC50 | 4.68 µM |
| CS(C)(=O)=Nc1ccc(-c2ccc(-c3nc4cc(O[C@@H]5CO[C@H]6[C@@H]5OC[C@H]6O)[nH]c4cc3F)cc2)cc1 | FGFR2 (Homo sapiens, UniProt P21802) | enzyme activity, inhibitor |  | 10 µM |  | inhibition | 1% |
| CC(C)C[C@H](NC(=O)[C@H](CC(=O)O)NC(=O)CNC(=O)[C@@H](N)CCCNC(=N)N)C(=O)N[C@@H](C)C(=O)N[C@H](C(=O)N[C@@H](CC(C)C)C(=O)N[C@@H](CCCNC(=N)N)C(=O)N[C@@H](CCC(N)=O)C(=O)N[C@@H](CC(C)C)C(=O)N[C@@H](C)C(=O)N[C@@H](CCC(N)=O)C(=O)N[C@@H](CCC(=O)O)C(=O)N[C@@H](CC(=O)O)C(=O)NCC(=O)N[C@H](C(=O)N[C@H](C(=O)NCC(=O)N[C@H](C(=O)N[C@@H](CCCNC(=N)N)C(=O)NCCOCCOCCOCCOCCOCCOCCOCCOCCOCCOCCOCCOCCC(=O)N[C@@H](CS)C(N)=O)C(C)C)C(C)C)C(C)C)[C@@H](C)O | H2126 lung adenocarcinoma | cell binding, phage binding, item: output/input phage |  | 10 min, 37 °C | relative to: control phage | selectivity ratio | 28 ± 10 |
| CSCC[C@H](NC(=O)[C@H](CCC(=O)O)NC(=O)[C@H](CS)NC(=O)[C@H](Cc1ccccc1)NC(=O)[C@H](CC(N)=O)NC(=O)[C@@H]1CCCN1C(=O)[C@@H]1CCCN1C(=O)[C@H](CC(N)=O)NC(=O)[C@H](CC(C)C)NC(=O)[C@H](CCSC)NC(=O)[C@H](CC(C)C)NC(=O)[C@H](CS)NC(=O)[C@H](CCC(N)=O)NC(=O)CNC(=O)[C@H](Cc1ccc(O)cc1)NC(=O)[C@@H](NC(=O)[C@@H](NC(=O)[C@@H]1CCCN1C(=O)[C@@H](N)CS)C(C)C)[C@@H](C)O)C(=O)N[C@@H](CC(=O)O)C(=O)NCC(=O)N[C@@H](CCC(N)=O)C(=O)N[C@@H](CS)C(=O)N[C@@H](CCCCN)C(=O)O | RAW264.7 | Western blot |  | concentration not given, 6 h pretreatment, together with: LPS 30 min |  | p-ERK/ERK ratio | 0.61 ± 0.06 |
| NC(=S)N/N=C/c1ccc(OCc2cccc(F)c2)cc1 | IMR-32 |  |  | 300 µg/mL, 24 h | higher = more activity | catalase activity (OD450) | 0.22 a.u. |
| COc1ccccc1-c1n[nH]c2nc(N[C@H]3CC[C@H](NS(=O)(=O)CC(C)C)CC3)ncc12 |  | bead binding, competition bead pull-down, item: LINJ.22.0350 | Leishmania donovani extract | 10 µM | relative to: vehicle | relative abundance | 0.95 |
| O=C(C[Se]C(=O)c1ccc2ccccc2c1)Nc1cccc(C(F)(F)F)c1 | NCI60 melanoma subpanel | cytotoxicity, inhibitor |  | five-dose |  | CC50 | 6.57 µM |
| CC(C)(C)C(=O)OCOP(=O)(OCOC(=O)C(C)(C)C)C1CCCN(O)C1=O (stereo not drawn) | K562 |  |  |  |  | CC50 | > 100 µM |
| CC(C)Cc1ccc(C(C)C(=O)[O-])cc1.CC(C)Cc1ccc(C(C)C(=O)[O-])cc1.[Cu+2].c1ccncc1.c1ccncc1 (stereo not drawn) | OVCAR-3 | cell growth or viability, MTT |  | 48 h |  | GI50 | 24 µM |
| COc1ccccc1-c1n[nH]c2nc(NC3CCN(C(=O)Cc4ccc(F)cc4F)CC3)ncc12 |  | bead binding, competition bead pull-down, item: LMJF.04.1230 | Leishmania donovani extract | 10 µM | relative to: vehicle | relative abundance | 1.02 |
| Cc1cc(C(=O)Nc2nc3cccc(C)c3n2[C@H]2CCCCN(C(=O)/C=C/CN(C)C)C2)ccn1 | Trypanosoma brucei | cell growth, Alamar Blue | 2T1 overexpressing Tb927.7.6310 |  | relative to: parental 2T1 | EC50 fold shift | 0.71 fold and 0.79 fold |
| O=C(C[Se]C(=O)c1ccccc1Nc1ccccc1)Nc1cccc(C(F)(F)F)c1 | NCI60 melanoma subpanel | cytotoxicity, inhibitor |  | five-dose |  | CC50 | 6.35 µM |
| CSCC[C@H](NC(=O)[C@@H](NC(=O)[C@H](CCC(N)=O)NC(=O)[C@H](CO)NC(=O)[C@@H](N)C(C)C)[C@@H](C)O)C(=O)N[C@@H](CCCNC(=N)N)C(=O)N[C@@H](CCC(N)=O)C(=O)N[C@H](C(=O)N[C@@H](C)C(=O)N[C@H](C(=O)N1CCC[C@H]1C(=O)N[C@@H](CC(C)C)C(=O)N[C@@H](CC(C)C)C(=O)N[C@@H](Cc1c[nH]c2ccccc12)C(=O)N[C@@H](Cc1ccccc1)C(=O)N[C@@H](Cc1c[nH]c2ccccc12)C(=O)N[C@H](C(=O)NCC(=O)N[C@@H](CO)C(=O)N[C@@H](CC(C)C)C(=O)NCCOCCOCCOCCOCCOCCOCCOCCOCCOCCOCCOCCOCCC(=O)N[C@@H](CS)C(N)=O)[C@@H](C)O)C(C)C)[C@@H](C)O | SKOV3 ovarian cancer | cell binding, phage binding, item: output/input phage |  | 10 min, 37 °C | relative to: control phage | selectivity ratio | 2 ± 0.59 |

Some of these lines once more:
| SMILES | target or system | test | system | setting | scale | endpoint | value |
| --- | --- | --- | --- | --- | --- | --- | --- |
| N=C(N)NCCC[C@H](NC(=O)CNC(=O)[C@@H](N)Cc1ccc(O)cc1)C(=O)N[C@@H](CCCCN)C(=O)N[C@@H](CCCCN)C(=O)N[C@@H](CCCNC(=N)N)C(=O)N[C@@H](CCCNC(=N)N)C(=O)N[C@@H](CCC(N)=O)C(=O)N[C@@H](CCCNC(=N)N)C(=O)N[C@@H](CCCNC(=N)N)C(=O)N[C@@H](CCCNC(=N)N)C(=O)N[C@@H](CS)C(N)=O | human red blood cells |  |  | pH 7.4 | relative to: Triton X-100 | EC50 | > 100 µM |
| O=C(C[Se]C(=O)c1cc2ccccc2[nH]1)Nc1cccc(C(F)(F)F)c1 | NCI60 leukaemia subpanel | NCI60 five-dose screen |  |  |  | CC50 | 4.74 µM |
| O=C(C[Se]C(=O)c1ccccc1Nc1cccc(C(F)(F)F)c1)Nc1cccc(C(F)(F)F)c1 | NCI60 melanoma subpanel | cytotoxicity, inhibitor |  | five-dose |  | CC50 | 10.6 µM |
| COc1ccccc1-c1n[nH]c2nc(NC3CCN(C(=O)Cc4ccc(F)cc4F)CC3)ncc12 |  | bead binding, competition bead pull-down, item: LMJF.04.1230 | Leishmania donovani extract | 10 µM | relative to: vehicle | relative abundance | 1.02 |
